Experimental data gathered from unrelated publications.
Lines come from different studies, so protocols differ. ± marks the error that the study gave.
CYP3A4: Cytochrome P450 3A4 (CYP3A4, Homo sapiens, UniProt P08684)
UniProt P08684, sequence (whole entry, looked up): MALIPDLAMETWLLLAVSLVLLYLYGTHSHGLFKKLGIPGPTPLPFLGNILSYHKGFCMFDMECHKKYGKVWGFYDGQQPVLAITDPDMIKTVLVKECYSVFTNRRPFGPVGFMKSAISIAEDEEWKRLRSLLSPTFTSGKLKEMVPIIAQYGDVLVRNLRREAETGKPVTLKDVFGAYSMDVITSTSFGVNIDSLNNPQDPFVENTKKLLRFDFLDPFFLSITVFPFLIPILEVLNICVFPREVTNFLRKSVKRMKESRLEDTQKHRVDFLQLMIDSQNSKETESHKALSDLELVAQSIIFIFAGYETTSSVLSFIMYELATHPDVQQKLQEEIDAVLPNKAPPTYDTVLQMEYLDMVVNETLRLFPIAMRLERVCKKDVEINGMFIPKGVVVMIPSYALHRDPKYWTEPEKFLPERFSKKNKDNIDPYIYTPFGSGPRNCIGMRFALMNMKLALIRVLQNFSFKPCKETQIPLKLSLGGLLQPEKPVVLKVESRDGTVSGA
UniProt P21397, sequence (whole entry, looked up): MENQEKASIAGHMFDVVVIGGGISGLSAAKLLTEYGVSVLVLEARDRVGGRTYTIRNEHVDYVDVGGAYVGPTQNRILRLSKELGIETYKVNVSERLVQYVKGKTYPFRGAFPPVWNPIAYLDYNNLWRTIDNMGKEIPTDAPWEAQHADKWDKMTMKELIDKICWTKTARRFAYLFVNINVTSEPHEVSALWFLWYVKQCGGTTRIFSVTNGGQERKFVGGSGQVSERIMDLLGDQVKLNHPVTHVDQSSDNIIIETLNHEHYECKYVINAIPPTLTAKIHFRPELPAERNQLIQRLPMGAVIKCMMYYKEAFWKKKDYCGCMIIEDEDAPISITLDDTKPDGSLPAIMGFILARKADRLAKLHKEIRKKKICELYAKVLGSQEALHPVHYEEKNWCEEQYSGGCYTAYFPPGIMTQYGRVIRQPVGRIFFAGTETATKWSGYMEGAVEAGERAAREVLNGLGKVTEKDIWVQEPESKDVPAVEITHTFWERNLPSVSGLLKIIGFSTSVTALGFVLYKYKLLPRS
UniProt Q12809, sequence (whole entry, looked up): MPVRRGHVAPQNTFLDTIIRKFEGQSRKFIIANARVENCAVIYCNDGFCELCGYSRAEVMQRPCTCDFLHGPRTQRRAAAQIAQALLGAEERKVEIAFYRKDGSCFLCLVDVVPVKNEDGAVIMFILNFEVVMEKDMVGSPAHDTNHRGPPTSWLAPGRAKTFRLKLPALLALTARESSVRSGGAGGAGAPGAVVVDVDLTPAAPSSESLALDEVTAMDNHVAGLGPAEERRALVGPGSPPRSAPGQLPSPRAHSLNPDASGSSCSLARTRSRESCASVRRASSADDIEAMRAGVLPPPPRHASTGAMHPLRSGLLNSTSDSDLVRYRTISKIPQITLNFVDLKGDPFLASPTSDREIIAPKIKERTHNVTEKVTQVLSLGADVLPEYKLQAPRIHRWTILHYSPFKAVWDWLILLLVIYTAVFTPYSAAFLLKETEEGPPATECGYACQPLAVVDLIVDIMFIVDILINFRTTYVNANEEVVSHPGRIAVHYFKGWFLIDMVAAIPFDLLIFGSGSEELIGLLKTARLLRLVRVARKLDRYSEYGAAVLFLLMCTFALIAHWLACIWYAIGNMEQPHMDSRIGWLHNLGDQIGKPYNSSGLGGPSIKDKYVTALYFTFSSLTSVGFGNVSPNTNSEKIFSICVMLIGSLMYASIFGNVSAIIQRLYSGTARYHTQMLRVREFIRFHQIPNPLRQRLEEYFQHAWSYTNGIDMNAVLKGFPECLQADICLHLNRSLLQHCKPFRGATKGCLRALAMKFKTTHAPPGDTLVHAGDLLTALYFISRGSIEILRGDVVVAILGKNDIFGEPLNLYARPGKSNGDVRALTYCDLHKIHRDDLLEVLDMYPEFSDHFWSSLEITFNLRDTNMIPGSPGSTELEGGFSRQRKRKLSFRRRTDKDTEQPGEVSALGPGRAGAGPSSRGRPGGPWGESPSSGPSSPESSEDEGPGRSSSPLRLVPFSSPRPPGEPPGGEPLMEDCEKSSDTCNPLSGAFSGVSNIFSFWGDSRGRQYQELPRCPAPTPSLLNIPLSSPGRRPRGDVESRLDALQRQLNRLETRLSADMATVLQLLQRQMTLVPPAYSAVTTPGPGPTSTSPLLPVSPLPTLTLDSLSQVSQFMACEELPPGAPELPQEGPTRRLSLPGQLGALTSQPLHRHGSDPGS

Under “Vd/F geometric mean”, CC[C@H]1[C@@H](O)[C@@H]2[C@H](CC[C@]3(C)[C@@H]([C@H](C)CCNC(=O)NS(=O)(=O)c4ccc(C(C)(C)C)cc4)CC[C@@H]23)[C@@]2(C)CC[C@@H](O)C[C@@H]12 is recorded as 416 L (CYP3A4; substrate; human, plasma; 10 mg, alone, study day 1).
C=CC(=O)N1C[C@H](Nc2ncnc3[nH]ccc23)CC[C@@H]1C — result for “apparent oral clearance CL/F”: 112 L/h (CYP3A; substrate; human; oral, 30 mg single dose, cpd alone).
The Km of Nc1nnc(-c2cccc(Cl)c2Cl)c(N)n1 is reported as 200 ± 10 µM (UGT1A, humanized; glucuronidation, Michaelis-Menten kinetics; Tg-UGT1 mice, male, DMSO control group, pooled liver microsomes; 30 min, pH 7.2).
Under “activation rate acceleration”, Cc1oc2ccccc2c1Cc1cc(I)c(OCC(=O)O)c(I)c1 is recorded as 1.8 ± 0.1 fold (KCNH2 (Homo sapiens, UniProt Q12809); potassium current, whole-cell patch clamp; HEK293 expressing hERG1; 10 µM, at 0 mV, added: MTx 4 µM; baseline: control).
With CC(C)=CCc1c(O)cc(O)c2c1O[C@H](c1ccc(O)cc1)CC2=O the inhibition was under 10% (human CYP2E1; 1 µM, pH 7.4).
Cc1cc(Nc2ncnc3ccc(NC4=NC(C)(CO)CO4)cc23)ccc1Oc1ccn2ncnc2c1 (stereo not drawn) — result for “Cmax (arithmetic mean)”: 133 ng/mL (CYP3A4; human, plasma; tucatinib, day 6, added: itraconazole).
The inhibition of CC(C)=CCc1c(O)cc2c(c1O)C(=O)C[C@@H](c1ccc(O)cc1)O2 is reported as under 10% (human CYP2E1; 1 µM, pH 7.4).
CC[C@H](C)[C@H](NC(=O)[C@H](Cc1ccc(O)cc1)NC(=O)[C@@H](NC(=O)[C@@H](N)CCCN=C(N)N)C(C)C)C(=O)N[C@@H](Cc1c[nH]cn1)C(=O)N1CCC[C@H]1C(=O)N[C@@H](Cc1ccccc1)C(=O)O gave a proteolytic conversion of 83.5 ± 2.4% (chymotrypsin; LC-MS; 20 µM, 60 min, pH 7.4, 25 °C).
With NCc1cc2c(cc1F)C(=O)N(C1CCC(=O)NC1=O)C2 (stereo not drawn) the concentration was 3.5 µM (MAOA (Homo sapiens, UniProt P21397); substrate, LC-MS/MS; recombinant enzyme; 10 µM, 20 h, pH 7.4).

A few entries again:
With NCc1cc2c(cc1F)C(=O)N(C1CCC(=O)NC1=O)C2 (stereo not drawn) the concentration was 3.5 µM (MAOA (Homo sapiens, UniProt P21397); substrate, LC-MS/MS; recombinant enzyme; 10 µM, 20 h, pH 7.4).
